# Assay results of several laboratories.
# Numbered parts are unrelated; each lists some results of a single study. “And” joins repeats or separate records; there may be more than shown. pEC50: −log10 of the molar value.
# Chain of UniProt Q9Y243 (whole entry, looked up): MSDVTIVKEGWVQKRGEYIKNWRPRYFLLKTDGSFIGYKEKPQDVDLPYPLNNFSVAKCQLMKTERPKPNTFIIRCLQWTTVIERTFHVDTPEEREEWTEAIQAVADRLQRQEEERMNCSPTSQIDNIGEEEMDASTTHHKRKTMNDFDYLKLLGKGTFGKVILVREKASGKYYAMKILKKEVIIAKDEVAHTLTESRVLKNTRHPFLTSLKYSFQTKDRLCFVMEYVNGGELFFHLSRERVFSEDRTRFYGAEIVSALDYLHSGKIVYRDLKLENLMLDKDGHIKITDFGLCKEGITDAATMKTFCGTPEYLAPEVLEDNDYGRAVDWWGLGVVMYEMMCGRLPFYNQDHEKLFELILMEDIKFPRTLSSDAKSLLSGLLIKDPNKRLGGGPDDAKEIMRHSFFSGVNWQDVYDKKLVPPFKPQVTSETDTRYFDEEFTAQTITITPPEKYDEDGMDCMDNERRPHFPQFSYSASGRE

# Sample 1 — cell line: Huh-7; concentration: 10 µM; time: 24 h
SMILES,viability
CCCc1nc(C(C)(C)O)c(C(=O)OCc2oc(=O)oc2C)n1Cc1ccc(-c2ccccc2-c2nnn[nH]2)cc1,92.4%
Cc1ccc(C)c(OCCCC(C)(C)C(=O)O)c1,98.2%
COc1ccccc1OCC(O)CO (stereo not drawn),106%
C[C@@H]1O[C@@H]1P(=O)(O)O,104%
CC(C(=O)O)c1ccc(N2Cc3ccccc3C2=O)cc1 (stereo not drawn),101%
NC(=O)c1ncn([C@@H]2O[C@H](CO)[C@@H](O)[C@H]2O)n1,92.7%
CCCCCCCCCCCCCCCC(=O)OC[C@@H](NC(=O)C(Cl)Cl)[C@H](O)c1ccc([N+](=O)[O-])cc1,92%
CC(C)OC(=O)C(C)(C)Oc1ccc(C(=O)c2ccc(Cl)cc2)cc1,99.2%
CN(C)CCOC(C)(c1ccccc1)c1ccccn1 (stereo not drawn),98%
CC#C[C@]1(O)CC[C@H]2[C@@H]3CCC4=CC(=O)CCC4=C3[C@@H](c3ccc(N(C)C)cc3)C[C@@]21C,101%
CC=CC1=C(C(=O)O)N2C(=O)[C@@H](NC(=O)[C@H](N)c3ccc(O)cc3)[C@H]2SC1,95.8%
N[C@@H]1CON=C1O,104%

# Sample 2 — observed: enzyme activity; action: inhibitor; concentration: 0.5 µM; relative to: control
# Target: Ephrin type-A receptor 5 (EPHA5, Homo sapiens, UniProt P54756)
# Chain of UniProt P54756 (whole entry, looked up): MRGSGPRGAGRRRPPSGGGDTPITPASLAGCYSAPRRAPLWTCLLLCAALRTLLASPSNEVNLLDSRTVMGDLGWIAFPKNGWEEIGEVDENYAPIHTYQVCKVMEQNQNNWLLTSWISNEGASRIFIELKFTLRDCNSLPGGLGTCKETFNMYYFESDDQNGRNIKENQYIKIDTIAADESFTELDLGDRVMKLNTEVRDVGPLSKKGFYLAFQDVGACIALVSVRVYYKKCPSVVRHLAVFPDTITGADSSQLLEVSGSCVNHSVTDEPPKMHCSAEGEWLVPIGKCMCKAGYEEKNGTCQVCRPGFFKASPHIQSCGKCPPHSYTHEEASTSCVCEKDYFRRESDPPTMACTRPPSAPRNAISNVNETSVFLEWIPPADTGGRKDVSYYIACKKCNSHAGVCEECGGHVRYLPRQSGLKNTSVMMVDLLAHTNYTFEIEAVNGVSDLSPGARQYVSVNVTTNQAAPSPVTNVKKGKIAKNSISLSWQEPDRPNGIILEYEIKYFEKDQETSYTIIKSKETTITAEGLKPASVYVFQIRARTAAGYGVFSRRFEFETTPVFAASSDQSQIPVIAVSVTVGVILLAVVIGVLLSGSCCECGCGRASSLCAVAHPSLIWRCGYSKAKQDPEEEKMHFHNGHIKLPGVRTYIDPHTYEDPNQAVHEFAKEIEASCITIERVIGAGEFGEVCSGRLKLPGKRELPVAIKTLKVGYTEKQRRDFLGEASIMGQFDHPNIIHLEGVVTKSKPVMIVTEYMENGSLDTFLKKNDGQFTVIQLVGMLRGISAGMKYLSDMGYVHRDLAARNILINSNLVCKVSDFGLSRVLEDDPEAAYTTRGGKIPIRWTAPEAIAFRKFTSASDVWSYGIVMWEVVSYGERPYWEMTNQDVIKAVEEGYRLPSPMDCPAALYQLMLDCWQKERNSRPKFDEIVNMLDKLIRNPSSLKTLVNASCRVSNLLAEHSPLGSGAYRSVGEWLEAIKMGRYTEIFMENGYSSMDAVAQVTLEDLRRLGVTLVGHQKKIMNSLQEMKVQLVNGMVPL
SMILES,remaining activity
Cc1cn(-c2cc(NC(=O)c3ccc(C)c(Nc4nccc(-c5cccnc5)n4)c3)cc(C(F)(F)F)c2)cn1,22.6%
O=C1c2ccccc2-c2n[nH]c3cccc1c23,102%
O=C1C(Cl)=C(N2C(=O)CCC2=O)C(=O)c2ccccc21,113%
C[C@@H]1CCN(C(=O)CC#N)C[C@@H]1N(C)c1ncnc2[nH]ccc12,99.9%
CN([C@@H](Cc1ccc(OS(=O)(=O)c2cccc3cnccc23)cc1)C(=O)N1CCN(c2ccccc2)CC1)S(=O)(=O)c1cccc2cnccc12,102%
O=C(NC(NC(=S)Nc1ccc(F)c([N+](=O)[O-])c1)C(Cl)(Cl)Cl)C(c1ccccc1)c1ccccc1 (stereo not drawn),107%
CCN(CC)C(=O)c1ccc(Nc2nc(OCC3CCCCC3)c3[nH]cnc3n2)cc1,95%
COc1cc2ncnc(Nc3ccc(O)c(Br)c3)c2cc1OC,72.3%
c1ccc(-c2[nH]ncc2-c2ccnc3ccccc23)nc1,94.9%
Nc1cccc(-c2cc3c(Oc4cccc(O)c4)ncnc3[nH]2)c1,41.7%
COc1cc2ncnc(Nc3cccc(Cl)c3)c2cc1OC,68.3%
CCN(CC)CCNC(=O)c1c(C)[nH]c(/C=C2\C(=O)Nc3ccc(F)cc32)c1C,87.6%
Cn1nc2c3c(cccc31)C(=O)c1ccccc1-2,126%
O=C(Nc1cccc(Nc2nccc(Nc3cccc(C(F)(F)F)c3)n2)c1)C1CC1,96.2%
CCN(CC)CCNC(=O)c1c(C)[nH]c(/C=C2\C(=O)Nc3ccc(Cl)cc32)c1C,90.4%
O=c1cc(-c2cccc3c2Sc2ccccc2S3)oc(N2CCOCC2)c1,114%
Cc1nc2cc3nc(-c4cccs4)cnc3cc2n1C,105%
N#Cc1c(NC(=O)c2cccc3ccccc23)sc2c1CCCC2,99.6%
c1ccc(-c2cnc(Nc3ccc(OCCN4CCCC4)cc3)s2)cc1,97%
COc1cc2c(cc1OC)-c1[nH]nc(Nc3cccc(F)c3)c1C2,93.4%
Ic1cccc(CSc2nnc(-c3ccncc3)o2)c1,100%
Cc1cc2ncc(-c3ccccc3)nc2cc1C,96.1%
CCOc1nc(NC(=O)Cc2cc(OC)ccc2OC)cc(N)c1C#N,112%
N#C/C(=C\c1ccc(O)c(O)c1)C(=O)NCc1ccccc1,103%
CN(C)C[C@H]1CCn2c(c(C3=C(c4cn(C)c5ccccc45)C(=O)NC3=O)c3ccccc32)C1,95.1%

# Sample 3 — method: protein binding microarray; molecule type: double-stranded DNA, one strand shown; sample: in vitro; concentration: not given; relative to: not given; direction: higher = stronger binding
# Target: Histone acetyltransferase KAT6A, winged helix 1, GST fusion (KAT6A, Homo sapiens, UniProt Q92794, residues 1-85)
# Notes: 8-mer, flanks averaged, mean of 2 arrays, mostly near background
# Construct (chain): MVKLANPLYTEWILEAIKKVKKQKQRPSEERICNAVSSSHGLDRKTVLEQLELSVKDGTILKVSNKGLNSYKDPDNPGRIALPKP
Sequence,E-score
CTTGTACA,-0.191
CCTGCTCA,-0.151
AGTCGTGA,-0.18
ACATATTC,-0.158
TAGGGGAA,-0.218
GAGACCTC,-0.25
TAACTTCA,-0.0857
TGCACGAA,-0.069

# Sample 4 — cell line: mouse MPNST tumor cells; method: high-content immunofluorescence imaging; item: nuclear SOX9; concentration: 10 µM; time: 12 h; notes: mean of 2 replicates; relative to: DMSO control; direction: higher = more nuclear SOX9
SMILES,nuclear SOX9 intensity
O=C(O)C[C@@]1(O)C[C@@H](CCCCCCc2ccc(Cl)cc2Cl)OC1=O,92 % of DMSO
CNC[C@H](O)[C@@H](O)[C@H](O)[C@H](O)CO,80.8 % of DMSO
O=C(O)c1cc(=O)c2c(Cl)cc(Cl)cc2[nH]1,94.1 % of DMSO
O=C(O)/C=C/c1ccc(Cn2ccnc2)cc1,97 % of DMSO
CCCCN(CCCC)C(=O)CN1C[C@H](c2ccc3c(c2)OCO3)[C@@H](C(=O)O)[C@@H]1c1ccc(OC)cc1,96.1 % of DMSO
N#Cc1cc2[nH]c(=O)c(=O)[nH]c2cc1[N+](=O)[O-],89.2 % of DMSO
CN1CCc2cccc3c2[C@H]1Cc1ccc(O)c(O)c1-3,137 % of DMSO
O=C1N(c2ccccc2)c2ccccc2C1(Cc1ccncc1)Cc1ccncc1,92.4 % of DMSO
CC(=O)Nc1nc(C)c(S(=O)(=O)Nc2ccc(C(O)(C(F)(F)F)C(F)(F)F)cc2)s1,91.3 % of DMSO

# Other studies, line by line
SMILES,tested on,assay,test system,conditions,scale,measurement,value
CC(=O)N[C@@H](Cc1c[nH]c2ccccc12)C(=O)N[C@@H](CCC(=O)C=[N+]=[N-])C(=O)OC(C)C,,UPLC-MS/MS,"EL4 tumor, C57BL/6 CES1-/- mice, tumor","subcutaneous, 0.3 mg/kg DON equivalent daily, 5 days",higher = more metabolite,thiamin monophosphate level,731000 a.u. and 1.22e+06 a.u. and 906000 a.u. and 1.1e+06 a.u. and 1.02e+06 a.u. and 1.17e+06 a.u.
CC(C)n1cnc(-c2ccc(F)cc2)c1-c1ncc(C(=O)Nc2ccc(N3CCN(C)CC3)cc2)[nH]1,,,IPF patients,"30 mg once daily, adverse event",,Hypocalcaemia incidence,0%
NC1(c2ccc(-c3nc4c(O)ccnn4c3-c3ccccc3)cc2)CCC1,"RAC-gamma serine/threonine-protein kinase (AKT3, Homo sapiens, UniProt Q9Y243)","target engagement in cells, BRET",,,,pEC50,< 4.30

# A few entries again (sample 2):
SMILES,remaining activity
Cc1nc2cc3nc(-c4cccs4)cnc3cc2n1C,105%
Ic1cccc(CSc2nnc(-c3ccncc3)o2)c1,100%
O=C(NC(NC(=S)Nc1ccc(F)c([N+](=O)[O-])c1)C(Cl)(Cl)Cl)C(c1ccccc1)c1ccccc1 (stereo not drawn),107%
Cc1cn(-c2cc(NC(=O)c3ccc(C)c(Nc4nccc(-c5cccnc5)n4)c3)cc(C(F)(F)F)c2)cn1,22.6%
CN(C)C[C@H]1CCn2c(c(C3=C(c4cn(C)c5ccccc45)C(=O)NC3=O)c3ccccc32)C1,95.1%
CCN(CC)CCNC(=O)c1c(C)[nH]c(/C=C2\C(=O)Nc3ccc(Cl)cc32)c1C,90.4%
C[C@@H]1CCN(C(=O)CC#N)C[C@@H]1N(C)c1ncnc2[nH]ccc12,99.9%
